Assay results gathered from unrelated publications.
Protocols differ between the studies behind these lines. Numbers after ± are the reported error.
Organism: SARS-CoV-2

`C[C@@]1(O)[C@H](O)[C@@H](CO)O[C@H]1n1cc(F)c2c(N)ncnc21` gave an EC50 of 7.6 ± 0.4 µM (viral replication; Vero; 48 h).
For `CN(C)c1ccc(N(Cc2cc(Cl)cs2)C(=O)Cc2cncc3cccc(O)c23)cc1`, the EC50 was 0.04 ± 0.01 µM (nucleocapsid staining; Caco-2, Omicron BQ.1.1).
With `O=[N+]([O-])c1ccc(O)c2ncccc12` the EC50 was about 5 µM (viral replication; human epithelial cells, ancestral; 24 h).
For `CC[C@H](C)[C@@H](C(=O)O[C@@H](CC(C)C)C(=O)N[C@@H](CC(C)C)C(=O)N[C@@H](C)/C=C/C(=O)N1C(=O)C=C(OC)[C@@H]1C)N(C)C`, the EC50 was 6.61 µM (viral replication; HEK293 ACE2/TMPRSS2; fixed 7:1 molar combination).
`C[C@H]1COC2=C1C(=O)C(=O)c1c2ccc2c1CCCC2(C)C` gave an EC50 of 0.7 µM (viral replication, plaque reduction; Vero C1008; 24 h).
For `CC1(C)C=Cc2c(cc3occ(-c4ccc(O)cc4)c(=O)c3c2O)O1`, the EC50 was 16.3 ± 1.1 µM (viral replication; Calu-3, mNeonGreen reporter).
`CCC(CC)COC(=O)[C@H](C)N[P@](=O)(OC[C@H]1O[C@@](C#N)(c2ccc3c(N)ncnn23)[C@H](O)[C@@H]1O)Oc1ccccc1` gave an EC50 of 0.3 ± 0.2 µM (viral replication, cell-based; Washington).
For `COc1cc2c(Oc3ccc4[nH]c(C)cc4c3F)ccnc2cc1OCC1(N)CC1`, the EC50 was over 100 µM (viral replication, GFP plate reader screen; cell-based).
`CN(C)CCOc1ccc(/C(=C(/CCCl)c2ccccc2)c2ccccc2)cc1` has an EC50 of 2.5 µM (Vero C1008, WIV04; 24 h).
The EC50 of `O=C[C@H](C[C@@H]1CCNC1=O)NC(=O)[C@H](CC1CCCCC1)NC(=O)c1cc2ccccc2[nH]1` is reported as 1.91 µM (viral replication; Vero E6, 2019-nCoV-WIV04; 20% human serum).
`C=CC(=O)Nc1cccc(-c2snc3cc(-c4ccc(N)c(OC)c4)cnc23)c1` gave an EC50 of 0.5 µM (viral replication; Vero E6, USA-WA1/2020).
The EC50 of `CCc1ccc(NC(=O)c2cc3c(=O)n4ccccc4nc3n2C)cc1` is reported as 0.0762 ± 0.00973 µM (viral replication, qPCR; Vero E6).
With `CC(C)(C)[C@H](NC(=O)C(F)(F)F)C(=O)N1C[C@H]2[C@@H]([C@H]1C(=O)N[C@H](C#N)C[C@@H]1CCNC1=O)C2(C)C` the EC50 was 0.1 ± 0.08 µM (viral replication, qRT-PCR of viral RNA; Caco-2, Washington).
`CCNC(=O)[C@@H](NC(=O)c1ccccc1NC(=O)c1ccc(OC)cc1)C(C)C` has an EC50 of over 50 µM (plaque formation, plaque reduction; Vero E6; 72 h).
With `O=C1c2ccccc2-[n+]2ccc3c([nH]c4ccccc43)c21` the EC50 was over 20 µM (virus-induced cytopathic effect; Vero E6, USA-WA1/2020; 72 h).
For `Cc1cc(NC(=O)c2cc3c(=O)n4cccc(C)c4nc3n2C)ccc1Br`, the EC50 was 0.109 µM (viral replication; Vero E6).
`CCNC/C=C\CNCCCCNCCCCNC/C=C\CNCC` has an EC50 of about 0.5 µM (viral replication; 293T-ACE2, USA-WA1/2020; 24 h).
`CC(C)C[C@H](NC(=O)c1cc2c(F)ccc(F)c2[nH]1)C(=O)N[C@@H](C[C@@H]1CCNC1=O)C(=O)c1nc2cc(F)ccc2s1` gave an EC50 of 2.7 ± 0.15 µM (viral replication, RT-qPCR; VeroE6, WK-521).
`[N-]=[N+]=N[C@]1(CO)O[C@@H](n2ccc(N)nc2=O)[C@@H](F)[C@@H]1O` has an EC50 of 1.8 to 6.4 µM (viral replication; DBT-9-hACE2, USA-WA1/2020 nLuc reporter).
`O=c1[nH]cnc2c1nnn2[C@@H]1C(F)=C(CO)[C@@H](O)[C@H]1O` gave an EC50 of over 100 µM (viral replication, spike protein immunostaining; Vero; 48 h).
With `CN(C)CCON=C1c2ccccc2CCc2ccccc21` the EC50 was over 100 µM (viral replication, high-content imaging screen; cell-based).
`C1=C(c2ccc(CN3CCCCC3)cc2)N2CCN=C2c2ccccc21` has an EC50 of 0.11 µM (viral replication; Huh-7-ACE2, USA-WA1/2020; 24 h).
`NCC[C@H](Oc1ccc(C(F)(F)F)cc1)c1ccccc1` has an EC50 of 7.59 µM (viral replication, GFP plate reader screen; cell-based).
For `CCOC(=O)C(NC(=O)COc1ccccc1)(Nc1nc2ccccc2s1)C(F)(F)F` (stereo not drawn), the EC50 was 23.1 ± 5.5 µM (plaque formation, plaque reduction; Vero E6; 72 h).
`CNCc1ccc(C)c(NC(=O)c2ccc(Nc3nc(-c4ccccc4)c4ccccc4n3)cc2)c1` gave an EC50 of over 100 µM (viral replication, high-content imaging screen; cell-based).
`COc1ccc2c(c1)c(CC(=O)O)c(C)n2C(=O)c1ccc(Cl)cc1` has an EC50 of over 50 µM (plaque formation, plaque reduction; Vero E6; 72 h).
With `CC(C)(C)NC(=O)N[C@H](C(=O)N1C[C@H]2[C@@H]([C@H]1C(=O)NC(CC1CCC1)C(=O)C(N)=O)C2(C)C)C(C)(C)C` (stereo partly drawn) the EC50 was 1.9 µM (viral cytopathic effect; Vero 76, USA-WA1/2020; 120 h).
The EC50 of `CC(C)(C)[C@H](NC(=O)C(F)(F)F)C(=O)N1C[C@@H]2CCC[C@@H]2[C@H]1C(=O)N[C@@H](C[C@@H]1CCNC1=O)C(=O)c1nc2c(F)ccc(F)c2s1` is reported as 0.27 µM (viral replication; Vero C1008, JPN/TY/WK-521 (ancestral Wuhan)).
For `Cc1cc(C)c2nc(-c3cnc(NCCCC4CCN(C)CC4)nc3C)[nH]c2c1`, the EC50 was over 25.1 µM (viral replication, GFP plate reader screen; cell-based).
`CC(C)(C)c1ccc(N(Cc2cc(Cl)cs2)C(=O)Cc2cncc3ccccc23)cc1` has an EC50 of 8.5 µM (Calu-3, B.1.617.2 Delta).
With `CC(C)=CCc1cc([C@@H]2CC(=O)c3c(O)cc(O)c(CC=C(C)C)c3O2)cc(CC=C(C)C)c1O` the EC50 was 20.2 µM (viral replication; mNeonGreen reporter).
The EC50 of `CC(C)(C)[C@H](NC(=O)C(F)(F)F)C(=O)N1C[C@H]2[C@@H]([C@H]1C(=O)N[C@H](C#N)C[C@@H]1CCNC1=O)C2(C)C` is reported as 0.0065 µM (viral replication; Vero C1008, WT replicon ΔS-E-M; 24 h).
`Nc1ncnc2c1nnn2[C@@H]1C(F)=C(CO)[C@@H](O)[C@H]1O` has an EC50 of 12.2 µM (viral replication, spike protein immunostaining; Vero; 48 h).
With `CC(C)=CC[C@@H](O)C1=CC(=O)c2c(O)ccc(O)c2C1=O` the EC50 was over 100 µM (viral replication; Vero E6; 96 h).
`CC1(C)CCC(c2ccc(Cl)cc2)=C(CN2CCN(c3ccc(C(=O)NS(=O)(=O)c4ccc(N[C@H](CCN5CCOCC5)CSc5ccccc5)c(S(=O)(=O)C(F)(F)F)c4)cc3)CC2)C1` gave an EC50 of over 100 µM (viral replication, GFP plate reader screen; cell-based).
`COc1ccc(N(Cc2cc(Cl)cs2)C(=O)Cc2cncc3ccccc23)cc1` has an EC50 of 3.2 µM (viral replication; Calu-3, Omicron BA.2).
`N#C[C@@]1(c2ccc3c(N)ncnn23)O[C@H](CO)[C@@H](O)[C@H]1O` has an EC50 of 15.6 ± 0.76 µM (infectious virus yield; Vero C1008, VOC-202012/01; 48 h, 50% decrease endpoint).
`O=C(Nc1ccccc1C(=O)NCc1ccccc1)c1cc(S(=O)(=O)N2CCOCC2)ccc1F` has an EC50 of over 50 µM (plaque formation, plaque reduction; Vero E6; 72 h).
With `Cc1cc(-c2ccc(/N=N/c3ccc4c(S(=O)(=O)O)cc(S(=O)(=O)O)c(N)c4c3O)c(C)c2)ccc1/N=N/c1ccc2c(S(=O)(=O)O)cc(S(=O)(=O)O)c(N)c2c1O` the EC50 was over 100 µM (viral replication, high-content imaging screen; cell-based).
`Cn1cnc(Cn2c(=O)[nH]/c(=N\c3cc4cn(C)nc4cc3Cl)n(Cc3cc(F)c(F)cc3F)c2=O)n1` has an EC50 of 0.14 µM (viral replication; Vero C1008, WT).
For `Cc1cccn2c(=O)c3cc(C(=O)Nc4ccc(N(C)C)cc4)n(C)c3nc12`, the EC50 was 0.0376 ± 0.00423 µM (viral replication, qPCR; Vero E6).
The EC50 of `Cc1nc2ccccn2c(=O)c1CCN1CCC(=C(c2ccc(F)cc2)c2ccc(F)cc2)CC1` is reported as over 100 µM (viral replication, high-content imaging screen; cell-based).
`CSc1ccc(N(Cc2cc(Cl)cs2)C(=O)Cc2cncc3ccccc23)cc1` gave an EC50 of 13.2 µM (viral replication; Calu-3, Omicron BA.1).
`CC(C)CC(NC(=O)OCc1ccccc1)C(=O)NC(C(=O)NCC(=O)C=[N+]=[N-])C(C)C` (stereo not drawn) gave an EC50 of 0.0069 µM (viral replication; Huh-7-ACE2, USA-WA1/2020; 24 h).
`Cc1ccc(NS(=O)(=O)c2cccc(C(=O)NC3CCN(c4ncnc5[nH]cnc45)CC3)c2)cc1` gave an EC50 of 16.2 µM (viral replication; A549-ACE2, Wuhan-Hu-1; 24 h).
For `COc1cc2c(cc1N1C[C@@H](C)N[C@@H](C)C1)N(C(=O)c1ccc(-c3ccc(-c4noc(C)n4)cc3C)cc1)CC2`, the EC50 was 0.64 µM (viral replication; Huh-7-ACE2, USA-WA1/2020; 24 h).
`O=C(Nc1ccc2c(c1)OCO2)c1nnc(C(=O)N2CCCC(C(=O)NCc3ccccc3)C2)s1` (stereo not drawn) has an EC50 of 7.1 ± 3.5 µM (plaque formation, plaque reduction; Vero E6; 72 h).
With `COc1ccc2cc1Oc1ccc(cc1)C[C@H]1c3cc(c(OC)cc3CCN1C)Oc1c(OC)c(OC)cc3c1[C@H](C2)N(C)CC3` the EC50 was 0.56 µM (viral replication; 293T-ACE2, USA-WA1/2020; 24 h).
For `O=C(O[C@@H]1O[C@@H]2COC(=O)c3cc(O)c(O)c(O)c3-c3c(cc(O)c(O)c3O)C(=O)O[C@H]([C@H]1O)[C@@H]2O)c1cc(O)c(O)c(O)c1`, the EC50 was 0.08 µg/mL (viral infection; Vero).
For `CC(C)(C)NCc1ccc(Nc2ccnc3cc(Cl)ccc23)cc1O`, the EC50 was 0.29 µM (viral replication; 293T-ACE2, USA-WA1/2020; 24 h).
For `COc1ccc(C(=O)Nc2ccccc2C(=O)N[C@H](C(=O)NC2CCCCC2)C(C)C)cc1`, the EC50 was 35.7 ± 3.8 µM (plaque formation, plaque reduction; Vero E6; 72 h).

Some of these lines once more:
`Nc1ncnc2c1nnn2[C@@H]1C(F)=C(CO)[C@@H](O)[C@H]1O` has an EC50 of 12.2 µM (viral replication, spike protein immunostaining; Vero; 48 h).
`CCNC/C=C\CNCCCCNCCCCNC/C=C\CNCC` has an EC50 of about 0.5 µM (viral replication; 293T-ACE2, USA-WA1/2020; 24 h).
With `CN(C)CCON=C1c2ccccc2CCc2ccccc21` the EC50 was over 100 µM (viral replication, high-content imaging screen; cell-based).
With `COc1ccc2cc1Oc1ccc(cc1)C[C@H]1c3cc(c(OC)cc3CCN1C)Oc1c(OC)c(OC)cc3c1[C@H](C2)N(C)CC3` the EC50 was 0.56 µM (viral replication; 293T-ACE2, USA-WA1/2020; 24 h).
